Measurements of several laboratories.
Lines come from different studies, so protocols differ.

SMILES | assay | system | conditions | compound remaining
CC(C)[N+](C)(CCOC(=O)C1c2ccccc2Oc2ccccc21)C(C)C | metabolic stability | human, plasma | 30 min | 52.2%
C[C@@H](O)[C@H](NC(=O)[C@H](Cc1ccc(O)cc1)NC(=O)[C@H](Cc1ccc(O)cc1)NC(=O)[C@H](CO)NC(=O)[C@H](CCCNC(=N)N)NC(=O)[C@H](Cc1c[nH]cn1)NC(=O)[C@@H](N)Cc1c[nH]c2ccccc12)C(=O)N[C@@H](Cc1c[nH]c2ccccc12)C(=O)N[C@@H](CC(N)=O)C(=O)NCCCC[C@H](NC(=O)[C@H](CCCCNC(=O)[C@H](CC(N)=O)NC(=O)[C@H](Cc1c[nH]c2ccccc12)NC(=O)[C@@H](NC(=O)[C@H](Cc1ccc(O)cc1)NC(=O)[C@H](Cc1ccc(O)cc1)NC(=O)[C@H](CO)NC(=O)[C@H](CCCNC(=N)N)NC(=O)[C@H](Cc1c[nH]cn1)NC(=O)[C@@H](N)Cc1c[nH]c2ccccc12)[C@@H](C)O)NC(=O)[C@H](CC(N)=O)NC(=O)[C@H](Cc1c[nH]c2ccccc12)NC(=O)[C@@H](NC(=O)[C@H](Cc1ccc(O)cc1)NC(=O)[C@H](Cc1ccc(O)cc1)NC(=O)[C@H](CO)NC(=O)[C@H](CCCNC(=N)N)NC(=O)[C@H](Cc1c[nH]cn1)NC(=O)[C@@H](N)Cc1c[nH]c2ccccc12)[C@@H](C)O)C(=O)N[C@@H](CCCCN)C(=O)N[C@@H](CCCCN)C(N)=O | chemical stability | human, serum | 20 µM, 1 h | 25%
O=C(c1ccc(F)cc1)C1CCN(CCn2c(=O)[nH]c3ccccc3c2=O)CC1 | metabolic stability, mass spectrometry | mouse, liver microsomes | 45 min | 28.5%
C[C@@H](O)[C@H](NC(=O)[C@H](Cc1ccc(O)cc1)NC(=O)[C@H](Cc1ccc(O)cc1)NC(=O)[C@H](CO)NC(=O)[C@H](CCCNC(=N)N)NC(=O)[C@H](Cc1c[nH]cn1)NC(=O)[C@@H](N)Cc1c[nH]c2ccccc12)C(=O)N[C@@H](Cc1c[nH]c2ccccc12)C(=O)N[C@@H](CC(N)=O)C(=O)NCCCC[C@H](NC(=O)[C@H](CC(N)=O)NC(=O)[C@H](Cc1c[nH]c2ccccc12)NC(=O)[C@@H](NC(=O)[C@H](Cc1ccc(O)cc1)NC(=O)[C@H](Cc1ccc(O)cc1)NC(=O)[C@H](CO)NC(=O)[C@H](CCCNC(=N)N)NC(=O)[C@H](Cc1c[nH]cn1)NC(=O)[C@@H](N)Cc1c[nH]c2ccccc12)[C@@H](C)O)C(=O)NCCCC[C@H](NC(=O)[C@H](CCCCNC(=O)[C@H](CC(N)=O)NC(=O)[C@H](Cc1c[nH]c2ccccc12)NC(=O)[C@@H](NC(=O)[C@H](Cc1ccc(O)cc1)NC(=O)[C@H](Cc1ccc(O)cc1)NC(=O)[C@H](CO)NC(=O)[C@H](CCCNC(=N)N)NC(=O)[C@H](Cc1c[nH]cn1)NC(=O)[C@@H](N)Cc1c[nH]c2ccccc12)[C@@H](C)O)NC(=O)[C@H](CC(N)=O)NC(=O)[C@H](Cc1c[nH]c2ccccc12)NC(=O)[C@@H](NC(=O)[C@H](Cc1ccc(O)cc1)NC(=O)[C@H](Cc1ccc(O)cc1)NC(=O)[C@H](CO)NC(=O)[C@H](CCCNC(=N)N)NC(=O)[C@H](Cc1c[nH]cn1)NC(=O)[C@@H](N)Cc1c[nH]c2ccccc12)[C@@H](C)O)C(=O)N[C@@H](CCCCN)C(=O)N[C@@H](CCCCN)C(=O)N[C@@H](CCCCN)C(N)=O | chemical stability | human, serum | 20 µM, 4 h | 28%
Cc1ncsc1-c1ccc(CNC(=O)[C@@H]2C[C@@H](O)CN2C(=O)[C@@H](NC(=O)CCCCCCCCCCNC(=O)O[C@H]2C[C@@H](C)C=C3C=C[C@H](C)[C@H](CC[C@@H]4C[C@@H](O)CC(=O)O4)[C@H]32)C(C)(C)C)cc1 | metabolic stability | mouse, liver microsomes | 1 µM, 30 min, pH 7.4 | 4.34%
CC(C)NCC(O)COc1cccc2ccccc12 (racemic) | metabolic stability | human, liver microsomes | 2 µM, 40 min, pH 7.4 | 65%
COc1cc(-c2cc(C(C)=O)n3ccccc23)c(OC)cc1Cn1ccnc1 | metabolic stability | human, liver microsomes | 1 µM, 1 h, pH 7.4 | 86%
O=C(O)Cc1ccccc1Nc1c(Cl)cccc1Cl | metabolic stability | human, liver microsomes | 2 µM, 7 min, pH 7.4 | 71%
O=C(Nc1ccc(CN2CCOCC2)c(C(F)(F)F)c1)c1ccc(C#Cc2cccc3cnccc23)cn1 | metabolic stability | mouse, liver microsomes | 30 min | 21.8%
C[C@@H](O)[C@H](NC(=O)[C@H](Cc1ccc(O)cc1)NC(=O)[C@H](Cc1ccc(O)cc1)NC(=O)[C@H](CO)NC(=O)[C@H](CCCNC(=N)N)NC(=O)[C@H](Cc1c[nH]cn1)NC(=O)[C@@H](N)Cc1c[nH]c2ccccc12)C(=O)N[C@@H](Cc1c[nH]c2ccccc12)C(=O)N[C@@H](CC(N)=O)C(N)=O | chemical stability | human, serum | 20 µM, 1 h | 10.8%
O=C(N1CCCCC1)C12CC(c3ccccc3)(C1)C2 | metabolic stability | human, liver microsomes | 2 µM, 25 min, pH 7.4 | 83%
Cc1ccc(CCC(=O)Nc2nnc(S(N)(=O)=O)s2)cc1 | metabolic stability | mouse, liver microsomes | 1 h | 99.9%

Repeated from above:
SMILES | assay | system | conditions | compound remaining
CC(C)[N+](C)(CCOC(=O)C1c2ccccc2Oc2ccccc21)C(C)C | metabolic stability | human, plasma | 30 min | 52.2%
